Measured values of several laboratories.
Parts stem from different laboratories: compare values within a part only. Positions count from the first letter of the parent shown.

Study 1
Substance: PhoQ, residues 284 288 289 292 302 303 SLGVVW
Technique: Sort-seq
Item: YFP reporter
Medium: E. coli
Setting: PhoQ-PhoP variant library
With: 10 µM Mg2+
Relative to: high Mg2+ state
Reading: higher = stronger signaling
| target | fold induction |
| --- | --- |
| PhoP, residues 12 14 15 18 19 GMGLL (Escherichia coli, UniProt P23836) | 15.4 |
| PhoP, residues 12 14 15 18 19 LFHKL (Escherichia coli, UniProt P23836) | 2.88 |
| PhoP, residues 12 14 15 18 19 QQAYL (Escherichia coli, UniProt P23836) | 34.4 |

Study 2
Target: RING finger protein unkempt homolog, zinc fingers 1-6, GST-SBP tag (UNK, Homo sapiens, UniProt Q9C0B0, residues 30-357)
Technique: RNA Bind-n-Seq
Molecule type: RNA
Medium: in vitro
Concentration: not given
Setting: RNA with constant flanks, ends assumed
Relative to: input RNA pool
Reading: higher = stronger binding
All sequences stand within: GGGAGUUCUACAGUCCGACGAUC … CAACAGAGGAUUGAGCAUCA
Residues (chain): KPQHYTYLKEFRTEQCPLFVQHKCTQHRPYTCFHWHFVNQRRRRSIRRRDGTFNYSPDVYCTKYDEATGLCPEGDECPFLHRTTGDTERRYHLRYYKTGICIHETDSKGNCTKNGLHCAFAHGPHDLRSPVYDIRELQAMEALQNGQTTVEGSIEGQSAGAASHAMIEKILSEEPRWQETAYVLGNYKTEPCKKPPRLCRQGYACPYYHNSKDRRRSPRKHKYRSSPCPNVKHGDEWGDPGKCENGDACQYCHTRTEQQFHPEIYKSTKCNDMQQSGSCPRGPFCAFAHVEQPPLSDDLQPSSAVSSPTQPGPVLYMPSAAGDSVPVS
| Oligonucleotide | bound/input enrichment |
| --- | --- |
| AGUAGAGAUUCAGCACAGUUGGACUUCAGGAACAGGGACAUACAUUCUGGGGAUUUUCGGGACCGAGAAGGACCACCUAUGGACUACAGGGGUGGAGAUGGUACUCCUAUGGAUUAUAGA | 0.692 ratio |
| GAAGAUUUAUAUUUGCAAAGAGUAGCCGAACUGGACAAAAUUACUUCUGAAAGAGAUAAUUUCCGACAAGCAUAUGAAGAUCUUCGAAAACAAAGGCUGAAUGAAUUUAUGGCUGGUUUU | 0.207 ratio |
| ACCCGAUUCUGUCUUAUCUGUAACUAUGUCAGUCGAAUAAUUGAACCCCUGACCUCCCGAUGUUCAAAAUUCCGCUUCAAGCCUCUGUCAGAUAAAAUUCAACAGCAGCGAUUACUAGAC | 0.864 ratio |
| CUGCUUCCAAACACUGACAGGGAUCAAGUUUGUGGUCCUGGCAGACCCUAGGCAAGCUGGAACCGAUUCUCUUCUCCGAAAAAUUUAUGAAAUUUACUCAGACUUUGCCCUCAAGAAUCC | 0.296 ratio |
| UGCUGGAACGCAGCAGGAGACAAAGUUGGAGCCAGUGCUUCGGACGGUUCAGUUUGUGUCUCCGACCUUCGGAAAUAGCGUUACUAGUUGGAAGCCAUGGACCGACUAUGAAUGUGUACA | 0.21 ratio |
| AAAGUCUUUGGAGGCACUGUGCAUAAAAAAAGUGUUAGAGAGGAUGGAGUUUUCAACAUCCGUAUGGAUAAUACGUGUUCAUUAUUCAGGGGCCUGCAGAAGGAAGAAAUUGUUUUACUU | 0.154 ratio |
| UGCUACCAGACACUGACAGAAAUGCCUAUCAGGUGUGAGCUCUUUGACCAGAACCUGAAGCCCGCUCUGGAGGUGGCAGAGAAGGCUGGAACUUUUGGACCUGGGUCAUAGGCUGAACCU | 0.14 ratio |
| AGUGUUAAAUUUAACCCUGUUGAGACAUUUCUCUUGGGAAGUUGUGCUUCUGAUAGGAAUACCGUACUGUAUGAUAUGCGGCAAGCUACUCCUUUGAAAAAGGUUAUCCUGGAAAUGAGG | 0.246 ratio |
| UCUAAGGAAGACAAAAUGAAAGAAAGUGAAACAUUUUCCGAUUCAUCUCCCAUUGAGAUAACCGAUGAGUUUCCCACAUUUGUCAGUGCUAAAGAUGAUUCUCCUAAGGAGUACACUGAC | 0.0674 ratio |
| UAUUAUUUAUCUGUAUUUUUGGAACUAUCGGCUGGCUUGCCUGAAACUUCCAAGUAUGAAUAUCGUGCCGAAAUGGUUCACCAGUCGUGCAAUGAUCCUACAAAAAAUAUCAUUCGAGAA | 0.192 ratio |
| AGAUUCAAACCUGUGGUACCAUGGCCUCAUGUUGAAGGAGUAGAAGUGGACUUAGAGUCUAUCCGAAGAAAAAACAAAGCCAAAAAUGAACAGGAGCGCCAUGCUGGAGGAGAUUCCCAG | 0.64 ratio |

Study 3
Target: CCNE1, cyclin fold, Cln2 fusion (human)
Technique: yeast growth competition, sequencing
Medium: yeast
Setting: weak parent motif
Relative to: not given
Reading: higher = stronger binding
Parent: MICAL3 docking peptide (human); LQLRRQLSFSEDS
| Substitution | normalised enrichment score |
| --- | --- |
| LQLRRQLSASEDS [F9A] | 0.0619 |
| LQLRRQLSFSADS [E11A] | 0.625 |
| LQLRFQLSFSEDS [R5F] | 0.325 |
| LQLRRQLSFSRDS [E11R] | 0.609 |
| LQLRRELSFSEDS [Q6E] | 0.393 |
| LQLRRRLSFSEDS [Q6R] | 3.16 |
| LQLRRQLSFSGDS [E11G] | 0.793 |
| LQLRRQLEFSEDS [S8E] | 0.229 |
| LQLRRQLSFDEDS [S10D] | 1.13 |
| LQLRRQLSFSEHS [D12H] | 0.667 |
| LQLDRQLSFSEDS [R4D] | 0.0282 |
| LQLRRQLSFYEDS [S10Y] | 0.496 |
| LQLRRMLSFSEDS [Q6M] | 0.73 |
| LQLRRQLTFSEDS [S8T] | 1.1 |
| LQLRRQLGFSEDS [S8G] | 0.166 |
| LQLLRQLSFSEDS [R4L] | 0.259 |
| LQLIRQLSFSEDS [R4I] | 0.906 |

Study 4
Target: ABI1, truncated, D143A, DHFR fusion (Arabidopsis thaliana)
Technique: DHFR PCA, deep sequencing
Medium: yeast
Setting: methotrexate growth selection, single substitutions
With: (+)-ABA 200 µM
Relative to: wild-type fitted maximum
Reading: higher = stronger binding
Parent: PYL1, truncated, DHFR fusion (Arabidopsis thaliana); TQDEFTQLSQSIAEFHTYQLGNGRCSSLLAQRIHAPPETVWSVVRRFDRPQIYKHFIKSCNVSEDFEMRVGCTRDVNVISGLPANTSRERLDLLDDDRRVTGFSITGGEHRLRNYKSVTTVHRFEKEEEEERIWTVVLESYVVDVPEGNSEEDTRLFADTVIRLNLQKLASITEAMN
| Substitution | relative binding score |
| --- | --- |
| L20F | 92.8% |
| L156D | 87.4% |
| P36F | 86% |
| Y53L | 2.94% |
| T135G | 6.47% |
| Q2W | 103% |
| S11K | 86.7% |
| P83N | 33.9% |
| D159G | 78.4% |
| E129L | 100% |
| P36S | 98.3% |
| T120R | -1.67% |
| M68N | 100% |
| T86E | 91.6% |
| E130Q | 101% |
| S63P | 102% |
| L91M | 96.2% |
| H55R | 102% |
| A84P | 0.191% |
| E139Y | 99.9% |
| V118C | 101% |

Study 5
Target: CREB3L1, bZIP domain (human)
Technique: DHFR protein complementation
Medium: yeast
Setting: single substitutions, most at no-binding floor
Relative to: wild-type JUN-FOS pair
Reading: higher = stronger binding
Parent: JUN, bZIP domain (human); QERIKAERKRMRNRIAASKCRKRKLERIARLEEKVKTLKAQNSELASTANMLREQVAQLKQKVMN; partner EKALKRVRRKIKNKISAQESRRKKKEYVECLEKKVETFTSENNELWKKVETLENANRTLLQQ
| Substitution | binding fitness |
| --- | --- |
| A49W | -1.4 natural log |
| L59W | -1.57 natural log |
| L45H | -1.54 natural log |
| I28E | -1.39 natural log |
| V35A | -1.51 natural log |
| A49L | -1.43 natural log |
| I28T | -1.48 natural log |
| A49P | -1.41 natural log |
| A46L | -1.37 natural log |
| E33P | -1.5 natural log |
| A57Q | -1.34 natural log |
| Q41D | -1.5 natural log |
| A57N | -1.46 natural log |
| N42I | -1.53 natural log |
| L45E | -1.51 natural log |
| E44G | -1.49 natural log |
| Q55T | -1.42 natural log |
| K34S | -1.41 natural log |
| T48R | -0.939 natural log |

Study 6
Target: Ras GTPase-activating protein-binding protein 1, full length (G3BP1, Homo sapiens, UniProt Q13283)
Sequence of UniProt Q13283 (whole entry, looked up): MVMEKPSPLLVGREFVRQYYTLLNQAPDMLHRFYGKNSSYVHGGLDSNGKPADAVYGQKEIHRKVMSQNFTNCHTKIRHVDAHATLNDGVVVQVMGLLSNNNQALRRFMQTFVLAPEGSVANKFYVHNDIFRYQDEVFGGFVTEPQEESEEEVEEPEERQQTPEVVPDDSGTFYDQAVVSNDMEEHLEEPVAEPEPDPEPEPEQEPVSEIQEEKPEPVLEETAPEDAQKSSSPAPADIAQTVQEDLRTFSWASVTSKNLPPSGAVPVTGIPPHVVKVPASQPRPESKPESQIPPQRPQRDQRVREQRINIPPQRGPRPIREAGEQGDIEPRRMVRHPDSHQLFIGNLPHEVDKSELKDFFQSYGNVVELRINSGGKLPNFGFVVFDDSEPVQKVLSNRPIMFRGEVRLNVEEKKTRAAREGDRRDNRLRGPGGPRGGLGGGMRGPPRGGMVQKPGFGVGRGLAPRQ
Technique: RNA Bind-n-Seq
Molecule type: RNA
Medium: in vitro
Concentration: 200 nM
Setting: whole 134-nt RNA, ends assumed
With: 150 mM KCl
Relative to: input library
Reading: higher = stronger binding
All sequences stand within: GGGAGUUCUACAGUCCGACGAUC … UGGAAUUCUCGGGUGUCAAGG
| Oligonucleotide | log2 enrichment |
| --- | --- |
| UGCUCUUCACCAAGGAGGACGAGCCUGGCCGCUGCGACGUCCUGAGGAACCCCCUCUACCUCCAGAGUGUGAAGCUGCAGGAAGGUAAGC | 0.203 |
| UGGCCCUGGUGGCAUGCGGGGCGGAAGAGGUGGCCUCAUGGAUCGUGGUGGUCCCGGUGGAAUGUUCAGAGGUGGCCGUGGUGGAGACAG | 0.00324 |
| UAUGGACAAGCAUAAUGGAACAGACAGGUUUGUGAACCAGCAGUUUCAAGAGGAAAAGUUAAAUAAAUUGCAGAAGUUACUUAUUCUUUU | -1.97 |
| AAGUCCUGUGCUACACAUCGUAUGUACCGAAUCGGAAAAGGAAAAGGGAAAAGGGGAAAGUAUUAUGUUACGCCGUUCGGAUCUGCACUU | -0.812 |
| UCCUGUGCUACACAUCGUAUGUACCGAAUCGGGUUUUUGGGGUUUUUGGGUUUUUGGGGAAAGUAUUAUGUUACGCCGUUCGGAUCUGCA | 0.174 |
| CUGUGCUACACAUCGUAUGUACCGAAUCGGGGUUUUUUUGGUUUUUUUGGGUUUUUUUGGGGAAAGUAUUAUGUUACGCCGUUCGGAUCU | -0.949 |
| ACCAUGCAGGUGGGCAUCUUUGGGAAGUGGGGCAAGGGGGGGCUAGGGAGGGGGGUAACACUUUGGGAACAGGUGGUCCCAGGUCGUUUC | 1.17 |
| UCCUGUGCUACACAUCGUAUGUACCGAAUCGGGAAAAAAAGGGUUUUUGGGAAAAAGGGAAAGUAUUAUGUUACGCCGUUCGGAUCUGCA | -0.603 |
| UGAAGACACAGCAUCCACCCGAUCUUCAUUCACUGUCCAAGACCUUAAACCUUUUACAGAAUAUGUGUUUAGGAUUCGCUGUAUGAAGGA | -0.12 |
| UAACUUUAGAGGAGGAUCUGAUGGAUAUCGCAGUGGACGUGGAUUUGGGGAUGGCUAUAAUGGGUAUGGAGGAGGACCUGGAGGUGGCAA | 0.388 |
| CAAGUCCUGUGCUACACAUCGUAUGUACCGAAUCGGGAAAAGGGAAAAGGAAAAGGAAAGUAUUAUGUUACGCCGUUCGGAUCUGCACUU | -0.909 |
| UCAAGUCCUGUGCUACACAUCGUAUGUACCGAAUCGGGGAAGGGAAGGGGAAGGAAAGUAUUAUGUUACGCCGUUCGGAUCUGCACUUCC | 0.112 |
| ACCAUGCAGGUGGGCAUCUUUGGGAAUUGGGGCAAGGGGGGGAUAGGGAGGGGGGUAACACUUUGGGAACAGGUGGUCCCAGGUCGUUUC | 1.45 |
| UGGGACGUGGAUUUUGUUUAUUUUUUUAGCUCAUUUCCAGGGGUGGGAAUUUUUUUUUAAUAUGUGUCAUGAAUAAAGUUGUUUUUGAAA | -0.427 |

Repeated from above (study 3):
| Substitution | normalised enrichment score |
| --- | --- |
| LQLRRQLSFSRDS [E11R] | 0.609 |
| LQLRRELSFSEDS [Q6E] | 0.393 |
| LQLRRRLSFSEDS [Q6R] | 3.16 |
| LQLRRQLSFSGDS [E11G] | 0.793 |
| LQLRRQLEFSEDS [S8E] | 0.229 |
| LQLRRQLSFDEDS [S10D] | 1.13 |
| LQLRRQLSFSEHS [D12H] | 0.667 |
| LQLDRQLSFSEDS [R4D] | 0.0282 |
| LQLRRQLSFYEDS [S10Y] | 0.496 |
| LQLRRMLSFSEDS [Q6M] | 0.73 |
| LQLRRQLTFSEDS [S8T] | 1.1 |
| LQLRRQLGFSEDS [S8G] | 0.166 |
